# Published values collected from several papers.
# Every numbered part comes from another study and shows a few of its results, in no order. “And” joins repeats or separate records; there may be more than shown.
# UniProt P11802, sequence (whole entry, looked up): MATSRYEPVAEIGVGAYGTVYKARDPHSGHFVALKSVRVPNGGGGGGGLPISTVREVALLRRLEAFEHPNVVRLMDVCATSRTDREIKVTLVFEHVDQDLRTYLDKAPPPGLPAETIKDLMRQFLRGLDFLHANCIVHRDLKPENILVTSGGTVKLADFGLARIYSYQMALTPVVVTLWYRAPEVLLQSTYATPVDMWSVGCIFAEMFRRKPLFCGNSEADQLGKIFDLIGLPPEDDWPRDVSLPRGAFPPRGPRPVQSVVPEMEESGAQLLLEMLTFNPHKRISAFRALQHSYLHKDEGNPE
# UniProt Q13177, sequence (whole entry, looked up): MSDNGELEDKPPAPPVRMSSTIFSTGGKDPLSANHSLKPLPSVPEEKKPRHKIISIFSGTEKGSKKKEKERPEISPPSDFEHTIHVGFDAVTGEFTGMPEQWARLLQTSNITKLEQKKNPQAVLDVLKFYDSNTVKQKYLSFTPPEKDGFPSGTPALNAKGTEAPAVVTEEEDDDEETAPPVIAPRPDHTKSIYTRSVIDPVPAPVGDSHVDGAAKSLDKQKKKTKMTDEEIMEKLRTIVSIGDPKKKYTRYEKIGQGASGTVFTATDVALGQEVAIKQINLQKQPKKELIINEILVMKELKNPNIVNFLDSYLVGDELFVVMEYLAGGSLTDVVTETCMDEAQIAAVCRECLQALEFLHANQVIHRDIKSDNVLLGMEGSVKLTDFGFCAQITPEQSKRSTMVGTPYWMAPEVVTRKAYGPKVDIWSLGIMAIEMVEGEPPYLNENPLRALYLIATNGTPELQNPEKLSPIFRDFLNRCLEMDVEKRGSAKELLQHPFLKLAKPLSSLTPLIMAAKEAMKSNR
# UniProt P49761, sequence (whole entry, looked up): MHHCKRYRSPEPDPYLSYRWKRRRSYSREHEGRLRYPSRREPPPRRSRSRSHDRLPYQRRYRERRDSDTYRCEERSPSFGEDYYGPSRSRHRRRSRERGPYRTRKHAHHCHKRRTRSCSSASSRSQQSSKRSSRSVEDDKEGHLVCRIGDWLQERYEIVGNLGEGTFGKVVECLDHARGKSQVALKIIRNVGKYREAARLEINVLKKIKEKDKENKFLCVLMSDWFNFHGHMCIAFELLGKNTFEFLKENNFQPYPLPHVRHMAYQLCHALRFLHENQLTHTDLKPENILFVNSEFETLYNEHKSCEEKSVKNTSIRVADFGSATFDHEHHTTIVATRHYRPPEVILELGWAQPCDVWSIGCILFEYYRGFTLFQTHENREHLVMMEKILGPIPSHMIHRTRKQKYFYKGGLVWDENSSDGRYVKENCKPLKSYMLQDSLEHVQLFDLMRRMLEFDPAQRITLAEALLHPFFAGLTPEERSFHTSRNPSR
# UniProt Q9UHD2, sequence (whole entry, looked up): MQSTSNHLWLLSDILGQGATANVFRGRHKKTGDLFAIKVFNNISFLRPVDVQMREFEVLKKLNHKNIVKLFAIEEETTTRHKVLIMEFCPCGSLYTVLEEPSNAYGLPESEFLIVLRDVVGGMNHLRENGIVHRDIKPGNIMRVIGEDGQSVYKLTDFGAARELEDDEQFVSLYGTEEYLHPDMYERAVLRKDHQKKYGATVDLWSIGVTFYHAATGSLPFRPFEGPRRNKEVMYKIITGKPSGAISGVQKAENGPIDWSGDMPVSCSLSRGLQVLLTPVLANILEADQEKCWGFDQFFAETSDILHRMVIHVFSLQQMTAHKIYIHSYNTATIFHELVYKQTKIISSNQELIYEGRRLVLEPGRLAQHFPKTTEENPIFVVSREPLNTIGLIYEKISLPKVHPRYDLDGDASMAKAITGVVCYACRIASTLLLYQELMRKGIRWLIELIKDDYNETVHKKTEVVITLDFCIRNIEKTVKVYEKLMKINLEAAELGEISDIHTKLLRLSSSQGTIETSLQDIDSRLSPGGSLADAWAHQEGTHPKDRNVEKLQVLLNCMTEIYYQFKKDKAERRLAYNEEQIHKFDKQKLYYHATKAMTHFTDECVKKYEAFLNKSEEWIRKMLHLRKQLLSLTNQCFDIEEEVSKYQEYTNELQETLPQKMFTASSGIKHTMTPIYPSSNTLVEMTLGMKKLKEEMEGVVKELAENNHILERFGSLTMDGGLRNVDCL

# Block 1 — observed: thermal unfolding; method: differential scanning fluorimetry; tested at: 5.5 µM; direction: higher = more unfolded
# SMILES: C[C@@H]1CN(c2ccc(-c3cc(C(=O)NCCOCCOCCOCCOCCNC(=O)Cn4cc(-c5[nH]cc(C(=O)N[C@@H](CC(N)=O)c6ccc(F)c(Cl)c6)c5-c5ccc(Cl)cc5F)cn4)ccc3F)cc2NC(=O)c2c[nH]c(=O)cc2C(F)(F)F)C[C@H](C)N1C
# DCAF1: DDB1- and CUL4-associated factor 1 (DCAF1, Homo sapiens, UniProt Q9Y4B6)
# UniProt Q9Y4B6, sequence (whole entry, looked up): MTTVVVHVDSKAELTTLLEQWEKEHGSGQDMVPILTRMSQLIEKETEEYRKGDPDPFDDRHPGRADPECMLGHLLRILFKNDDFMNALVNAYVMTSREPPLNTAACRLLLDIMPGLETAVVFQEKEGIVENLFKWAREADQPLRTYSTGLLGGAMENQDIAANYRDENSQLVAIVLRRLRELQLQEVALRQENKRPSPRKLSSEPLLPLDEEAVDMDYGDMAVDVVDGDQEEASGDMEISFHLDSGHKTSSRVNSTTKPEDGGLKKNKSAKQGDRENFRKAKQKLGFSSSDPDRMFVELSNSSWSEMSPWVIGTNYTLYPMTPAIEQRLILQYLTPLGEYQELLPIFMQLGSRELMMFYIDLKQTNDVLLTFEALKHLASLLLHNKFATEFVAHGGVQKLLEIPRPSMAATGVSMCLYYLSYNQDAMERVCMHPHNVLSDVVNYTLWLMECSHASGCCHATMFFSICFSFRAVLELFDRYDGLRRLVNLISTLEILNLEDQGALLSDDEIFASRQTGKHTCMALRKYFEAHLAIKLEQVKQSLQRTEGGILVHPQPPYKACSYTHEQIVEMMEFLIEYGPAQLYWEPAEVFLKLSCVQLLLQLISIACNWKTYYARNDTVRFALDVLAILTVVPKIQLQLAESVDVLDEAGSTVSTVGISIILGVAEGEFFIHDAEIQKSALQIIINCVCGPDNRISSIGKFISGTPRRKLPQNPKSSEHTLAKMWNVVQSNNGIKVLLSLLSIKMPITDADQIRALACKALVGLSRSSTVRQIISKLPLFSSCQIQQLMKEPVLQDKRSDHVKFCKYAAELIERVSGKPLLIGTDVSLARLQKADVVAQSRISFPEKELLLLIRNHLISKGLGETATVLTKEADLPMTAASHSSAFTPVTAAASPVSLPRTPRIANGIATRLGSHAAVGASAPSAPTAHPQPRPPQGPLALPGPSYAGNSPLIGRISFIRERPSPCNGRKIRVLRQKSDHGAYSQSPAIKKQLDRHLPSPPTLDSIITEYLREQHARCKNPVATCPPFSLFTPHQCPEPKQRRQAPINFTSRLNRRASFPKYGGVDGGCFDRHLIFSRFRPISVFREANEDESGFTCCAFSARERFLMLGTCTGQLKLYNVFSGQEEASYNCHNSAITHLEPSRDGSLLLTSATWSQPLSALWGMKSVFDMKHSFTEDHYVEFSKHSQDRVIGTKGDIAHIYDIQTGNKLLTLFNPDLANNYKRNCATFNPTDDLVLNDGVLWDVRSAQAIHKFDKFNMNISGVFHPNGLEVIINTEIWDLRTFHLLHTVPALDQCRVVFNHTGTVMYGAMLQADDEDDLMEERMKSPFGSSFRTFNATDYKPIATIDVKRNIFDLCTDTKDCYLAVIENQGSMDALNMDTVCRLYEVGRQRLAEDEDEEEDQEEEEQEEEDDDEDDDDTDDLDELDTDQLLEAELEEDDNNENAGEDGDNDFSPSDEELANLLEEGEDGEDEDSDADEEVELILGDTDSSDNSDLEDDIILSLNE
# WDR5: WD repeat-containing protein 5 (WDR5, Homo sapiens, UniProt P61964)
target,setting,SYPRO Orange fluorescence [a.u.]
DCAF1,38.6 °C,9820
WDR5,63.01 °C,8810
DCAF1,29.8 °C,8220
WDR5,89.01 °C,43500
DCAF1,86.41 °C,38400
WDR5,51 °C,14400
DCAF1,45.2 °C,12200

# Block 2 — observed: kinase activity; mode: inhibitor; method: ADP-Glo; tested at: 0.6667 µM
# Target: Cyclin-dependent kinase 12, with cyclin K (CDK12, Homo sapiens, UniProt Q9NYV4)
# UniProt Q9NYV4, sequence (whole entry, looked up): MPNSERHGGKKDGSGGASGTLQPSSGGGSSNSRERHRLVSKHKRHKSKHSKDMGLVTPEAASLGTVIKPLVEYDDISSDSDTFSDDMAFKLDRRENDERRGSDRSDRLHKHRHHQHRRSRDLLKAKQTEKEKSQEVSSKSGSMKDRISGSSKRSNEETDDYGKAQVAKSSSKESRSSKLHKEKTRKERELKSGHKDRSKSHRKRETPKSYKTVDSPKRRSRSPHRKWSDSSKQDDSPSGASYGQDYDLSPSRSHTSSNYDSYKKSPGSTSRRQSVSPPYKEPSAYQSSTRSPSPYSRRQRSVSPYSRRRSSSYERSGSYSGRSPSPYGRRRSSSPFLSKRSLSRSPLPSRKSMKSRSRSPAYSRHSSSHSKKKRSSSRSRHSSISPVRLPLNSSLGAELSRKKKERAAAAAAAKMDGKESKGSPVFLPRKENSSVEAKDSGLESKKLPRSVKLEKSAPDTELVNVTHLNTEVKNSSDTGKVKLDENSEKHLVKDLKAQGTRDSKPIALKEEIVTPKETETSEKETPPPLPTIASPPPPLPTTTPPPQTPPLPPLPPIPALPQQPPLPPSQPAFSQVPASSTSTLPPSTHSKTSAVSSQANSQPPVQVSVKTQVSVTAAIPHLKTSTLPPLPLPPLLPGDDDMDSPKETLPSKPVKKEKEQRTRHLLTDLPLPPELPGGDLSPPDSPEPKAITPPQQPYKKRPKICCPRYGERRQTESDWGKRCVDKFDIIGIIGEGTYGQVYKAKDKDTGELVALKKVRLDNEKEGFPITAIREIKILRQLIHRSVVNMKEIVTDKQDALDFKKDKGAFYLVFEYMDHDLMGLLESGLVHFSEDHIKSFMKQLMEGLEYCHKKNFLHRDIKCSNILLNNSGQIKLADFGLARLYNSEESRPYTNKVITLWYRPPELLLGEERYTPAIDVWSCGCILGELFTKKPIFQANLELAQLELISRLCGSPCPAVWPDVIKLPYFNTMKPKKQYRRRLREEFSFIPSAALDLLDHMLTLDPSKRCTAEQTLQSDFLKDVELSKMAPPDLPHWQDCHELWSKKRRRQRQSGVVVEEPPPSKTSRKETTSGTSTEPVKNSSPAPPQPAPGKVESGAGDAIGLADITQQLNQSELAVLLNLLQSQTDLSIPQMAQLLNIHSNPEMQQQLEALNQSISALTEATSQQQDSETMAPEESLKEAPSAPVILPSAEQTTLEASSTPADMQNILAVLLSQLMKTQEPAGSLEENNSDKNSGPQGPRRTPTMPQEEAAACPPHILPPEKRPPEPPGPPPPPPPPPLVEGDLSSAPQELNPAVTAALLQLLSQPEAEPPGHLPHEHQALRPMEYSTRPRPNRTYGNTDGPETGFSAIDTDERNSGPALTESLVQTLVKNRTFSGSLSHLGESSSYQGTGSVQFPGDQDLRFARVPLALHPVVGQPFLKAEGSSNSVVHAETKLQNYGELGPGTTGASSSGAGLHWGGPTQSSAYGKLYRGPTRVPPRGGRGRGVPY
Compound,inhibition
CCn1cnc2c(NCc3nc4cc(Cl)c(Cl)cc4[nH]3)nc(N3CCC(NC(C)=O)CC3)nc21,77.3%
CCn1cnc2c(NCc3nc4cc(Cl)c(Cl)cc4[nH]3)nc(N3CCN(Cc4ccncc4)CC3)nc21,85.4%
CCn1cnc2c(NCc3nc4cc(Cl)c(Cl)cc4[nH]3)nc(N3CCN(C(=O)c4ccccc4)CC3)nc21,84%
CCn1cnc2c(NCc3nc4cc(Cl)c(Cl)cc4[nH]3)nc(N3CCN(C(=O)c4ccncc4)CC3)nc21,84.9%
CCCCOc1nc(NCc2nc3cc(Cl)c(Cl)cc3[nH]2)c2ncn(CC)c2n1,58.2%
CC(=O)N1CCN(c2nc(NCc3nc4cc(Cl)c(Cl)cc4[nH]3)c3ncn(C(C)C)c3n2)CC1,3.1%
CCn1cnc2c(NCc3nc4ccc(F)c(F)c4[nH]3)nc(N3CCn4ncnc4C3)nc21,77.9%
CCn1cnc2c(NCc3nc4cc(Cl)c(Cl)cc4[nH]3)nc(N3CCN(S(C)(=O)=O)CC3)nc21,82.1%
CCn1cnc2c(NCc3nc4cc(Cl)c(Cl)cc4[nH]3)nc(N3CCN(C(C)=O)CC3)nc21,84.3%
CCn1cnc2c(NCc3nc4cc(Cl)c(Cl)cc4[nH]3)nc(N3CCN(C(=O)c4ccccn4)CC3)nc21,77.6%

# Block 3 — mode: degrader; method: western blot; host: mouse, PK-59 xenograft; sample: tumour; notes: unit not given; reference: β-actin
# SMILES: Cc1ncsc1-c1ccc(C(CO)NC(=O)C2CC(O)CN2C(=O)C(C(C)C)n2cc(-c3ccc(COc4c(-c5c(C)c(F)cc6[nH]ncc56)c(C5CC5)cc5c(N6CC7CC6CN7)nc(OC6CCOCC6)nc45)cc3)nn2)cc1 (centres unmarked)
# Target: GTPase KRas (KRAS, Homo sapiens, UniProt P01116, G12D)
setting,KRAS G12D level
"30 mg/kg, 6 h",0.0795 and 0.0134 and 0.0446
"10 mg/kg, 48 h",0.0339 and 0.034 and 0.024
"10 mg/kg, 72 h",0.0057 and 0.0187 and 0.0116
"10 mg/kg, 2 h",0.107 and 0.0843 and 0.075
"30 mg/kg, 144 h",0.0285 and 0.028 and 0.0127
"10 mg/kg, 24 h",0.0196 and 0.012 and 0.0182

# Block 4 — observed: kinase activity
# Compound: CN(C1COC1)C(C)(C)/C=C(\C#N)C(=O)N1CCC[C@H]1Cn1nc(-c2ccc(Oc3ccccc3)cc2F)c2c(N)ncnc21
target,setting,inhibition
"RPS6KA3 (Homo sapiens, UniProt P51812)",1 µM,-2%
"PDPK1 (Homo sapiens, UniProt O15530)",0.1 µM,-6%
"PAK2 (Homo sapiens, UniProt Q13177)",0.1 µM,-3%
"MERTK (Homo sapiens, UniProt Q12866)",1 µM,2%
"EPHA1 (Homo sapiens, UniProt P21709)",0.1 µM,4%
"Cyclin-dependent kinase 4, with cyclin D (CDK4, Homo sapiens, UniProt P11802)",0.1 µM,2%
"RPS6KA5 (Homo sapiens, UniProt O75582)",0.1 µM,5%
"TTK (Homo sapiens, UniProt P33981)",1 µM,5%
"TBK1 (Homo sapiens, UniProt Q9UHD2)",0.1 µM,1%
"CLK3 (Homo sapiens, UniProt P49761)",0.1 µM,1%
"MARK1 (Homo sapiens, UniProt Q9P0L2)",1 µM,3%
"STK4 (Homo sapiens, UniProt Q13043)",1 µM,6%
"PAK5 (Homo sapiens, UniProt Q9P286)",0.1 µM,4%
"PRKCG (Homo sapiens, UniProt P05129)",0.1 µM,1%
"NEK2 (Homo sapiens, UniProt P51955)",0.1 µM,0%

# Excerpt of the above (block 2):
Compound,inhibition
CC(=O)N1CCN(c2nc(NCc3nc4cc(Cl)c(Cl)cc4[nH]3)c3ncn(C(C)C)c3n2)CC1,3.1%
CCn1cnc2c(NCc3nc4ccc(F)c(F)c4[nH]3)nc(N3CCn4ncnc4C3)nc21,77.9%
CCn1cnc2c(NCc3nc4cc(Cl)c(Cl)cc4[nH]3)nc(N3CCN(S(C)(=O)=O)CC3)nc21,82.1%
CCn1cnc2c(NCc3nc4cc(Cl)c(Cl)cc4[nH]3)nc(N3CCN(C(C)=O)CC3)nc21,84.3%
CCn1cnc2c(NCc3nc4cc(Cl)c(Cl)cc4[nH]3)nc(N3CCN(C(=O)c4ccccn4)CC3)nc21,77.6%
